Published values of several laboratories.
Parts stem from different laboratories: compare values within a part only. Substitutions count along the parent as printed.

Block 1 — method: RNA Bind-n-Seq; form: RNA; matrix: in vitro; tested at: 365 nM; baseline: no-protein control; reading: higher = stronger binding
Target: RNA binding protein fox-1 homolog 2, RRM domain, GST-SBP tag (RBFOX2, Homo sapiens, UniProt O43251-10, residues 100-194)
Setting: natural RNA segment, single round, ends assumed
All sequences stand within: GGGAGUUCUACAGUCCGACGAUC … UGGAAUUCUCGGGUGCCAA
Construct (chain): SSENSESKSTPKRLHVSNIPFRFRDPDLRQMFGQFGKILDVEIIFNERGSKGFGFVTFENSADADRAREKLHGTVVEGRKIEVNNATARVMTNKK
| Strand | RBNS enrichment (R) |
| --- | --- |
| AGAUGACUGAAGUAUUUGUGAGCCACAUAUUGGGAGUUCUAGAUUUGAGUGAAUGGCAGGAAAGGGCCAUCUCCAUUGAGAUGAUUAAGUGAACCAAACUAGUUCUCAGA | 0.548 |
| CUCAGCUGGAUGAGAGGCUGAGAUGGGUGGCCAGCUUGUACACCAGUCCCUGAACUGAGCUGUUUACAGGACUGGGGAGGCUCCACCCAGAAGGCUUUCAUUUGUACUCU | 0.615 |
| CUUGUUUCUAGUGUGUAUAUAUGUCGCCCCCGUGAUGCAUAUAUACACAGGUAUUAAAUAUAUCGCUCUAUAUAAUAUUAUAUAUGUGUGUGGUAUCCAAGGAAUCACUU | 0.448 |
| AAAGGCUUUCUUUAUCCUAAAGAUUAUUACCUUUUUAAAGUGCUCUUAUAUUUUCAUGAGUUUUUAUUUUGUCUCUGAGAUUUUGUAUUCCACAUUCUAGGGUAUUCUGU | 0.514 |
| CUCAGUUGAAAGAUUUCUUCUUUGAAAGGUCAAGACCGUGAACUGAAAAAAGUGUUGGCCUUUUUGCGGGACCAGAUUUUUAAGAUAAAAUAAAUAUUUUUACUUCUGUC | 0.654 |
| CAUUGUUUGAUUUCUUGUGACUAUUCUAAGAAUGAAUGCAAUCAGAUUUUAAAAGUAACUAAAUAUACUUCAGCACUUUUUUGCUUUAAACUAGAUCAUCUUAGACUUGU | 0.44 |
| ACUGAACUUUUUGGCACUGCUUUGGAUUGGGGUCAAUUGCAGUCCACGUAACUGGCUGCAGAGAAAUCUACCGAGCAAGGAAAAGGCACACACACACGUUUGCAGGGGUG | 1.55 |
| AGAUAUUGUGUUAGAAAAAUUUGAAACUAAAAGCUUCCCAAACAAAAUGGGAAACCUUACAGGACAUAAAACAUUAGGCUCGGGUUAGGCACUAAGAUAAAGUCUAGUCC | 0.574 |
| GUAUGGUGUGGUGUUUGUAGGCUGUGGGGUCUGGCUGUGUGGCCAAGGUGAAUAGCACAGGUUAGGGUGUGUGCCACACCCCAUGCACCUCAGGGCCAAGCGGGGGCGUG | 2.66 |
| GACUAAUGAGGCAUUACAAAUAAUAUUACUCUAUGAUGAUUGCUUCCACCCACACGACUGCAACAUACAGGUGCCUUGGGGAAAUGUGGAGAACAUUCAAUCUUGCCGUC | 0.49 |
| UCUCUAUUUAUCUUAGAAGUUUAGUUUCCCCCACCUCCCCUACCUUCUCUAGGUGGACAUUAAACCAUCGUCCAAAGUACAUGAGAGUCACUGACUCUGUUCACACAACU | 0.486 |
| GUUUGCCUUGGGCAGCUGUGGGGUUUUUCCGAUCUUGCUAGCCCGCAGGCAUCUUGACAUCUUAGUAACUGCCUUUUUAAUCCCAGUGGCCUGUACCAUAUUAUGGAGAA | 0.279 |

Block 2 — method: DHFR PCA, deep sequencing; matrix: yeast; with: (+)-ABA 2500 µM; baseline: wild-type fitted maximum; reading: higher = stronger binding
Target: ABI1, truncated, D143A, DHFR fusion (Arabidopsis thaliana)
Setting: methotrexate growth selection, single substitutions
Starting sequence: PYL1, truncated, DHFR fusion (Arabidopsis thaliana); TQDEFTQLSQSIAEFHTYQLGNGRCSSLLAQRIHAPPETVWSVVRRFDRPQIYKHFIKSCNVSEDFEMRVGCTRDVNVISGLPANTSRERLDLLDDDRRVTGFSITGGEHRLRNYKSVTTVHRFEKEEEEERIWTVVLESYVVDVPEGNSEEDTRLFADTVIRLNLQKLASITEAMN; partner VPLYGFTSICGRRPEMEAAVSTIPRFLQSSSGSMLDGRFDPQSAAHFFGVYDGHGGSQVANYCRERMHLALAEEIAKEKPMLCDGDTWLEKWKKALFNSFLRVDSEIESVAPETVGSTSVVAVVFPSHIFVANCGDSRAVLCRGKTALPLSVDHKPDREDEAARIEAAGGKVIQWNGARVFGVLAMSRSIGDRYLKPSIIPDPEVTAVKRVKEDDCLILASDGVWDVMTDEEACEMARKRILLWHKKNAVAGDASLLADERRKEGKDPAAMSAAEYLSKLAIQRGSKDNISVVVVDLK
| Substitution | relative binding score [%] |
| --- | --- |
| E129K | 106 |
| K58C | 87.1 |
| R113S | 108 |
| R90F | 75.3 |
| R163Q | 88.8 |
| L20T | 99.3 |
| L138R | 60.4 |
| V161D | -7.35 |
| S80G | 78.3 |
| K58G | 89.1 |
| V143E | 3.33 |
| G81P | 70.3 |
| Y18W | 102 |
| L20V | 101 |
| D153W | 12.4 |
| A84Y | 62.5 |
| R163L | 77.8 |
| T17H | 111 |
| Q31E | 90.8 |
| G148S | 90.3 |
| L164R | 97.3 |
| D159W | 48.6 |
| H34G | 96.4 |
| V40M | -15.2 |
| S87M | 3.15 |

Block 3 — method: protein-binding microarray; form: double-stranded DNA, one strand shown; matrix: in vitro; tested at: 940 nM top; setting: 60-bp whole probe; with: salmon DNA 0.4 mg/ml; baseline: random background probes; reading: higher = stronger binding; all sequences stand within: GCCTAGCAC … GTCTTGATTCGCTTGACGCTGCTG
Target: Interferon regulatory factor 5, full length, phosphomimetic (IRF5, Homo sapiens, UniProt Q13568-2, residues 1-514, S451D/S453D/S456D/S462D)
| Strand | fitted relative affinity |
| --- | --- |
| TTAGGACGGGGTATCGGTTAGTGCTAG | 3.85 z-score |
| CAAACACTAGTTTTTACTTTGTGCTAG | -0.00165 z-score |
| GACGGTATTGGTATCGGGACGTGCTAG | 3.4 z-score |
| TTAGGGCTGGACACTGGGTTAGTGCTA | -0.548 z-score |
| GTGTTACTAAAATTTCATGAAGTGCTA | -0.162 z-score |
| TTAGAACTGAGTCCCGATTAGTGCTAG | -0.243 z-score |
| TTAGATTTCGGGTAGCGATTAGTGCTA | 1.12 z-score |
| GACGGTATCGGTATTGGGACGTGCTAG | 7.69 z-score |
| TGGGCTGTGGGTTTGAGTCTGTGCTAG | 0.0706 z-score |
| GGTCTTCTGGGCTGTTTGGTCGTGCTA | -0.193 z-score |
| TCATTTTTCACTATTGCACTGTGCTAG | 1.92 z-score |
| GACGAACTGAGACTGGAGACGTGCTAG | -0.0538 z-score |
| GACGGTCTCCTTCTCCAGACGTGCTAG | 0.58 z-score |
| GCCCCTCTCCTCTCAGGAGCTGTGCTA | -0.0475 z-score |
| TTAGATCTCAGTTTCGAGTAGTGCTAG | 4.54 z-score |
| AAACCATCCTGTATGGATGTGTGCTAG | -0.624 z-score |
| TTTTCACTTTCTTTAACTCAGTGCTAG | 3.49 z-score |
| TCACTTCTCTTTTTGCTACTGTGCTAG | 1.72 z-score |
| GAAGGTATCGGGTTTCGGGACGTGCTA | 4.55 z-score |
| TCATCTTCCCCTCTCTTACTGTGCTAG | 1.17 z-score |
| TCACATTTTGGTTTTCCACTGTGCTAG | 1.05 z-score |
| TTAGGTCTCCTTTTCCTCTAGTGCTAG | 0.63 z-score |
| GACGGACTGGACTTTCGGGGCGTGCTA | 0.329 z-score |

Block 4 — method: protein binding microarray; form: double-stranded DNA, one strand shown; matrix: in vitro; tested at: not given; baseline: not given; reading: higher = stronger binding
Target: Histone acetyltransferase KAT6A, winged helix 1, GST fusion (KAT6A, Homo sapiens, UniProt Q92794, residues 1-85)
Setting: 8-mer, flanks averaged, mean of 2 arrays, mostly near background
Construct (chain): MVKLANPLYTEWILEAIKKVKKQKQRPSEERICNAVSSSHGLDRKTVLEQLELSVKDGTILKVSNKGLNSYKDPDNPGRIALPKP
| Strand | E-score |
| --- | --- |
| GCATCTAC | 0.0873 |
| CGCCTGGC | 0.296 |
| CCCGAACA | -0.0694 |
| AAACCTGA | -0.0779 |
| ATTACGGC | 0.356 |
| GTGAAGCA | -0.0893 |
| ATGAGACA | -0.198 |
| TCCGTAGA | 0.05 |
| ACTAACCT | -0.114 |
| ATACCGTC | 0.316 |
| AAAGCGCG | 0.423 |
| CCAAGGCC | 0.00866 |
| CCATTTCC | -0.028 |
| AAGCGATG | 0.112 |
| ACTCCCAG | 0.0135 |
| CTTTCGTA | -0.0868 |
| CCCGATCA | 0.128 |
| CCGGAGGC | 0.0353 |
| AGGGCGTC | 0.239 |
| TGTAGAAA | -0.121 |
| AACGATCT | -0.0384 |
| CTTTTAAA | 0.0437 |
| ATAGCAGA | -0.261 |
| AGGCCCCC | 0.0795 |
| ACTCACAC | -0.112 |

Block 5 — organism: Saccharomyces cerevisiae; observed: cell growth; method: competitive growth deep sequencing; form: peptide; setting: peptide tiling library; with: cyclin F-Cln2 fusion; reading: direction not given
| Sequence | enrichment score |
| --- | --- |
| SSEVARHLLFQSHM | 2.28 |
| SAVPLILPQAPSGPSY | 1.46 |
| IVLICAKRSLCAAFSV | -0.0762 |
| PARRRLRLSVDEVSSP | 3.48 |
| GLPDFVFQQQPVESEA | 0.885 |
| PKNAKRNLSSEFAN | -0.463 |
| SMTDFYHSKRRLIFSK | 3.08 |
| TARRIFQEPTEPKTKA | 1.36 |
| VLVRTSACRSLFGPVD | 3.37 |
| KPHVSDEEEEEPPFYH | 1.21 |
| DGCSPIKNWSPMRL | 0.678 |
| DTERAHSTLDEDLERW | -0.156 |
| PAKRRLELGE | 3.51 |
| KRNLLNEFDRII | 3.58 |
| KPKPVKPVTFSTGIKM | 1.85 |
| PKRAKRKLYTSEISSP | 1.2 |

Excerpt of the above (block 3):
| Strand | fitted relative affinity |
| --- | --- |
| TCACATTTTGGTTTTCCACTGTGCTAG | 1.05 z-score |
| AAACCATCCTGTATGGATGTGTGCTAG | -0.624 z-score |
| TCATTTTTCACTATTGCACTGTGCTAG | 1.92 z-score |
| TTAGGTCTCCTTTTCCTCTAGTGCTAG | 0.63 z-score |
| TTAGGACGGGGTATCGGTTAGTGCTAG | 3.85 z-score |
| GACGAACTGAGACTGGAGACGTGCTAG | -0.0538 z-score |
